# Measurements gathered from unrelated publications.
# A part holds a random share of what one study measured. Positions count from the first letter of the parent shown.

# Block 1 — method: protein binding microarray; molecule type: double-stranded DNA, one strand shown; medium: in vitro; tested at: not given; baseline: not given; reading: higher = stronger binding
# Target: Histone acetyltransferase KAT6A, winged helix 2, GST fusion (KAT6A, Homo sapiens, UniProt Q92794, residues 85-181)
# Notes: 8-mer, flanks averaged, mean of 2 arrays, mostly near background
# Residues (chain): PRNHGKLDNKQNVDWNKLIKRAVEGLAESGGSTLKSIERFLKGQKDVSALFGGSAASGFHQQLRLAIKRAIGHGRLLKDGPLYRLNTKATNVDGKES
Sequence,E-score
TAAGTAAA,-0.186
AATGTTGG,-0.19
CACCCCCA,-0.0649
ACATAAAT,-0.187
CCCCGACC,0.13
CACGGAGC,0.0996
GTTCCGAA,0.159
CCAACCAC,0.0737
ATGACCAA,-0.0964
GCCAGAGA,0.0286
CTGTATCC,-0.0737
AACAAAAT,-0.0854
CCACACGC,0.0985
AAATTCGT,0.0637
AGAAGAGA,-0.00624
CTACGCAA,0.00366

# Block 2 — method: RNA Bind-n-Seq; molecule type: RNA; medium: in vitro; tested at: 200 nM; notes: whole 134-nt RNA, ends assumed; added: 150 mM KCl; baseline: input library; reading: higher = stronger binding
# Target: Ras GTPase-activating protein-binding protein 1, full length (G3BP1, Homo sapiens, UniProt Q13283)
# UniProt Q13283, sequence (whole entry, looked up): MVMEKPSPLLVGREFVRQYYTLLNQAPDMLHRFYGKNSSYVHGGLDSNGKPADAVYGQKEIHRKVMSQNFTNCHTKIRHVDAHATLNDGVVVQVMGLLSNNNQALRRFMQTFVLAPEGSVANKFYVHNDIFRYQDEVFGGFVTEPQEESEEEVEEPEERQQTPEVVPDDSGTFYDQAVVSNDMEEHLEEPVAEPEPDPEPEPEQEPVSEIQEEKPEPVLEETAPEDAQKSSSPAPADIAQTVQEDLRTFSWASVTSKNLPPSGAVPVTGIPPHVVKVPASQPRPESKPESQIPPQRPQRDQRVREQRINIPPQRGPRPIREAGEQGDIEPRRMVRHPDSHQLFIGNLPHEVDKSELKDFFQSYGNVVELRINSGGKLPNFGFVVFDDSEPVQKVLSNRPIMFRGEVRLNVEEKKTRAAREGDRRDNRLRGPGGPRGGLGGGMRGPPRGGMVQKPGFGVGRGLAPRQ
Sequence,log2 enrichment
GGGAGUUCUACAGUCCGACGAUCCGCAGACAACACGCACCCACACAGACACAGAGGGAAGGGGUUGGGAUGGGGACAGGGUGCACAGCAGGGCGGGGUAGGACCCCAGCCCCUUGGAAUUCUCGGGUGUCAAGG,1.93
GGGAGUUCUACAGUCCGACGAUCAAGUCCUGUGCUACACAUCGUAUGUACCGAAUCGGGAAAAAGGGAAAGGGUUUGGGAAAGUAUUAUGUUACGCCGUUCGGAUCUGCACUUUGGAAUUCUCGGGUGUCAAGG,0.0811
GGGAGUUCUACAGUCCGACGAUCUCAAGUCCUGUGCUACACAUCGUAUGUACCGAAUCGGGCCCGGCCCGGGCCCGGGAAAGUAUUAUGUUACGCCGUUCGGAUCUGCACUUCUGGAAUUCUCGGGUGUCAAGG,-0.948
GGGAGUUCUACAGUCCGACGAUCACCAUGCAGGUGGGCAUCUUUGGGAAGUGGGGCAAGGGGGGGAUAGGGAGGGGGGUAACACUUUAAAAACAGGUGGUCCCAGGUCGUUUCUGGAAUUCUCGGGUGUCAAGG,1.34
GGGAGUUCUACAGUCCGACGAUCCCUGUGCUACACAUCGUAUGUACCGAAUCGGCCCCCCCGGCCCCCCCGGGGCCCCCCCGGGAAAGUAUUAUGUUACGCCGUUCGGAUCUGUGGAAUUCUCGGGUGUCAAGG,-0.0579
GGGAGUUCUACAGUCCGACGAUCUGGCCGGUGGCCGUGAGAACACGCUGUGUGGCUGAAAAGUGAAGGCAAGAGCUGAUUUGGCCUCUGUGCUCCCCUCCGCAAGGGGAUCGUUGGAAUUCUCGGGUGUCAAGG,-0.607
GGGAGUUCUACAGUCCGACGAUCCCUCAAGUCCUGUGCUACACAUCGUAUGUACCGAAUCGGUUGGUUGGUUGGGGAAAGUAUUAUGUUACGCCGUUCGGAUCUGCACUUCCAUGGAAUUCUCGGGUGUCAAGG,-0.299
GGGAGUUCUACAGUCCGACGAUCCACAGACAACACGCUCCCACACAGACACAGAGGGAAGGGGUUGGGAUGGGGACAGGGUGCACAGCAGGGCGGGGUAGGACCCCAGCCCCUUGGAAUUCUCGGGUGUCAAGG,2.43
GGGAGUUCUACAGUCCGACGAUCCCUCAAGUCCUGUGCUACACAUCGUAUGUACCGAAUCGGGAAGGGAAGGAAGGAAAGUAUUAUGUUACGCCGUUCGGAUCUGCACUUCCAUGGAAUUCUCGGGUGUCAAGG,-0.466
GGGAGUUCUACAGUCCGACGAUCGCAGGAAGUAAAAACAAAUGGAAAUGCUUCGGAUAGUGGCAGGGGUGGGGGUUGCUAAGGAAAGGGUAAAAUGGGAGUGGGUAAAGAGUUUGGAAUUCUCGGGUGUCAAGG,0.667
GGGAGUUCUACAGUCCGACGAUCCCUGUGCUACACAUCGUAUGUACCGAAUCGGAAAAAAAGGGAAAAAAAGGAAAAAAAGGGGAAAGUAUUAUGUUACGCCGUUCGGAUCUGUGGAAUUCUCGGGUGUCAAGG,-1.02
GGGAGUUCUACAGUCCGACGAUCCCUCAAGUCCUGUGCUACACAUCGUAUGUACCGAAUCGGGUGGGGUGGUGGGGAAAGUAUUAUGUUACGCCGUUCGGAUCUGCACUUCCAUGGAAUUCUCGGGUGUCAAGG,1.11
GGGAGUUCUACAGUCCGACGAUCGUCCUGUGCUACACAUCGUAUGUACCGAAUCGGGUUUUUGGGUUUUUGGUUUUUGGGGAAAGUAUUAUGUUACGCCGUUCGGAUCUGCACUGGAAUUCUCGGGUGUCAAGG,-0.666
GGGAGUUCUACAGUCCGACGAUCGUCCUGUGCUACACAUCGUAUGUACCGAAUCGGGGCCCCGGGCCCCGGGGCCCCGGGGAAAGUAUUAUGUUACGCCGUUCGGAUCUGCACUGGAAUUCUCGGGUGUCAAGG,-0.127

# Block 3 — target: CCND1, cyclin fold, Cln2 fusion (human); method: yeast growth competition, sequencing; medium: yeast; notes: weak parent motif; baseline: not given; reading: higher = stronger binding
# Parent: SGO1 docking peptide (human); PLAKRALKYTDEK; partner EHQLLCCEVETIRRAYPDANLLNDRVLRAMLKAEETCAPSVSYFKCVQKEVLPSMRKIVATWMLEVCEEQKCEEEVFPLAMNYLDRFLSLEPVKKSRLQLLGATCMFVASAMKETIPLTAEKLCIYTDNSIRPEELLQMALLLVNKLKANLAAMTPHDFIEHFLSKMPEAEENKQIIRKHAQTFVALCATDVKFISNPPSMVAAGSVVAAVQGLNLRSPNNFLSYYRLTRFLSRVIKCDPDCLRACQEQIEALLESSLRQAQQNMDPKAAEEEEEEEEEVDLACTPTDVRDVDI
Change,normalised enrichment score
L2A,0.217
Y9A,0.17
R5A,-0.134
K8A,0.096
P1A,-0.239

# Mixed results
Substance,target,test,system,conditions,scale,endpoint,result
"PhoQ, residues 284 288 289 292 302 303 AMDMFI","PhoP, residues 12 14 15 18 19 GQALL (Escherichia coli, UniProt P23836)","Sort-seq, measured: YFP reporter",E. coli,"PhoQ-PhoP variant library, added: 10 µM Mg2+","baseline: high Mg2+ state, higher = stronger signaling",fold induction,1.19

# A few entries again (block 1):
Sequence,E-score
CTGTATCC,-0.0737
CTACGCAA,0.00366
